# Literature values, collected from citations in different studies.
# Numbered parts are unrelated; values within a part may stem from several laboratories. pIC50, pKd, pKi: −log10 of the molar value.

# Set 1
# Compound: OCCN1CCN(CCC=C2c3ccccc3Sc3ccc(C(F)(F)F)cc32)CC1
# Cell line: MCF7
# Technique: microarray
# Tested at: concentration not given
# Reference: DMSO
item,log2 fold change
STX3 mRNA,1.29
ZNF165 mRNA,1.24
STX5 mRNA,1.05
USO1 mRNA,1.05
VEZF1 mRNA,1.03
TRIB1 mRNA,1.29
TBC1D17 mRNA,0.98

# Other studies, line by line
Compound,target or system,assay,conditions,measurement,value
Cl.OC1CCCCC1N1CCC(c2ccccc2)CC1 (racemic),Toxoplasma gondii,parasite growth,"concentration not given, drug repurposing screen",activity class,inactive
CC(C)(O)[C@H](F)CN1Cc2cc(NC(=O)c3cnn4cccnc34)c(N3CCOCC3)cc2C1=O,IRAK4,biochemical,,pKi,8.85
Oc1cc(Cl)ccc1Oc1ccc(Cl)cc1Cl,Toxoplasma gondii,parasite growth,concentration not given,antiparasitic activity,active
CCOC(=O)[C@@H]1CSCC(=O)N[C@H](CC)C(=O)N(C)[C@@H](C)C(=O)N[C@H](CC(C)C)C(=O)N(C)[C@H](C)C(=O)N(CC(C)C)CC(=O)N[C@H](CC(C)C)C(=O)N(C)[C@H](C)C(=O)N[C@@H](CC(C)C)C(=O)N1C,MDCK,,,log permeability (Pe),-5.9
CN1CCN(C(=O)C(C)(C)c2ccc(C(=O)Nc3cn4cc(-c5ccncc5)ccc4n3)cc2)CC1,DYRK1B,kinase activity,,pIC50,6.64
C=CCN1CC[C@]23c4c5ccc(O)c4O[C@H]2C(=O)CC[C@@]3(O)[C@H]1C5,Toxoplasma gondii,parasite growth,"concentration not given, published screen",activity class,inactive
CC[C@H]1C(=O)N[C@@H](CC(C)C)C(=O)N2CCC[C@@H]2C(=O)N(C)[C@@H](Cc2ccccc2)C(=O)N[C@@H](CC(C)C)C(=O)N(C)[C@H](C)C(=O)N1C,,,pH 7.4,logD,1.06
NC(=O)c1ccc2nc(-c3ccc(C4(N)CCC4)cc3)c(-c3ccccc3)n2n1,MKNK2,KINOMEscan,,pKd,6.48
Cl.Oc1cc2c(cc1O)[C@H]1c3ccccc3CN[C@@H]1CC2,Toxoplasma gondii,parasite growth,"concentration not given, published screen",activity class,inactive

# Some of these lines once more (set 1):
item,log2 fold change
TBC1D17 mRNA,0.98
